# Measured values collected from several papers.
# Each line is one published result; not all experiments were run side by side. Several values in a cell are separate wells, animals, samples, runs or records.
# Urease subunit alpha: Urease subunit alpha (Sporosarcina pasteurii, UniProt P41020)
# Chain of UniProt P41020 (whole entry, looked up): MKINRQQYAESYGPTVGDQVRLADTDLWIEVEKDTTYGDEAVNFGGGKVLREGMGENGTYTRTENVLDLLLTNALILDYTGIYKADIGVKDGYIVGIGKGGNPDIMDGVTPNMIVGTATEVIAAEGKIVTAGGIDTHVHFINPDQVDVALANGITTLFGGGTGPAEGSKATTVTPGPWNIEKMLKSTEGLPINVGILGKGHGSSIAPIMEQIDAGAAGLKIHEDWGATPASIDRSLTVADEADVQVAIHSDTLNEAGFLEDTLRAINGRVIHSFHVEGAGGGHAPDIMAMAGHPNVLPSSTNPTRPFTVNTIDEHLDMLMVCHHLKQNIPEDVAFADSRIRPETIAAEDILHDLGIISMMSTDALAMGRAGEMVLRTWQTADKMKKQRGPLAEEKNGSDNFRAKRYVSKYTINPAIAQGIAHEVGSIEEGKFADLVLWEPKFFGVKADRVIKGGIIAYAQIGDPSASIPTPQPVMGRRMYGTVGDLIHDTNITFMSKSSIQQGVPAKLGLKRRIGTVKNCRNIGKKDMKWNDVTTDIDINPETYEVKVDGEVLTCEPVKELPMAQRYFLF
# MAL12: Alpha-glucosidase MAL12 (MAL12, Saccharomyces cerevisiae S288c, UniProt P53341)
# Chain of UniProt P53341 (whole entry, looked up): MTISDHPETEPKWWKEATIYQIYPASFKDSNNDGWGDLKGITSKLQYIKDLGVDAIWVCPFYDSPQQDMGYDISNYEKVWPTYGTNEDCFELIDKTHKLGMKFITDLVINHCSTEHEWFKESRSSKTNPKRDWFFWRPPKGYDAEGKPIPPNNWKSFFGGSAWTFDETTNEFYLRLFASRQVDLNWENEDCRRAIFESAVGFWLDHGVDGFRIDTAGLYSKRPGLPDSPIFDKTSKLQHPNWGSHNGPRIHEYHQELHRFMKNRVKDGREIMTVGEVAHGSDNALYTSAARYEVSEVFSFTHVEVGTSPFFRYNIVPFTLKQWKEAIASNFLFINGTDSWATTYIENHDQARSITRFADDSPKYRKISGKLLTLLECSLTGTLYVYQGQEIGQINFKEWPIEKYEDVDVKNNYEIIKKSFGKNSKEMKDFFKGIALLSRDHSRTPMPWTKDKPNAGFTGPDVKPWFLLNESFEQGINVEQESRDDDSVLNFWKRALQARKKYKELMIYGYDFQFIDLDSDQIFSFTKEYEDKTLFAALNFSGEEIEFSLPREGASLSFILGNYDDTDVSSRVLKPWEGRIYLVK
# DRD5: D(1B) dopamine receptor (DRD5, Homo sapiens, UniProt P21918)
# Chain of UniProt P21918 (whole entry, looked up): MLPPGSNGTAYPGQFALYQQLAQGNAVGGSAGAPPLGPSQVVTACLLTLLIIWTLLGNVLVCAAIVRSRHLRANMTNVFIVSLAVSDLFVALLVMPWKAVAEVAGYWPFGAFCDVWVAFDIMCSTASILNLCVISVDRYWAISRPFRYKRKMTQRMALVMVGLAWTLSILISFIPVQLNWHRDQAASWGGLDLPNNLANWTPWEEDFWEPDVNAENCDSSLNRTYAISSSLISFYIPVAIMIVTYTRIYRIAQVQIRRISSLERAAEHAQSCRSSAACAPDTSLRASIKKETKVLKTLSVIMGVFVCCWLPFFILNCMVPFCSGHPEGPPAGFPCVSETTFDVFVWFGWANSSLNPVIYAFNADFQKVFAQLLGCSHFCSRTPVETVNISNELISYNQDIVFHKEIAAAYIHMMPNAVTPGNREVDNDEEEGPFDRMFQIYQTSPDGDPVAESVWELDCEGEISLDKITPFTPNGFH
# BRDT BD2: Bromodomain testis-specific protein, BD2 (BRDT, Homo sapiens, UniProt Q58F21)
# HTR4: 5-hydroxytryptamine receptor 4 (HTR4, Homo sapiens, UniProt Q13639)
# Chain of UniProt Q13639 (whole entry, looked up): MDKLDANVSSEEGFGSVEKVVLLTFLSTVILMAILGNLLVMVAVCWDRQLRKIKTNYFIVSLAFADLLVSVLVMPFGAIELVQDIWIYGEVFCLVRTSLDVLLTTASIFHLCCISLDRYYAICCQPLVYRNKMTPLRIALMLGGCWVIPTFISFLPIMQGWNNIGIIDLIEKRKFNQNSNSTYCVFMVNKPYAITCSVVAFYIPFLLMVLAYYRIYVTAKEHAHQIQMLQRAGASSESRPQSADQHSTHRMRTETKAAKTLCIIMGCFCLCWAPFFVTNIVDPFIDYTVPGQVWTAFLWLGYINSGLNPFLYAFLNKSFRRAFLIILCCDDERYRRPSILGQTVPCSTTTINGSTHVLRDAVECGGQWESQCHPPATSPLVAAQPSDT
# HTR1A: 5-hydroxytryptamine receptor 1A (HTR1A, Homo sapiens, UniProt P08908)
# Chain of UniProt Q8IWT6 (whole entry, unmodified, looked up): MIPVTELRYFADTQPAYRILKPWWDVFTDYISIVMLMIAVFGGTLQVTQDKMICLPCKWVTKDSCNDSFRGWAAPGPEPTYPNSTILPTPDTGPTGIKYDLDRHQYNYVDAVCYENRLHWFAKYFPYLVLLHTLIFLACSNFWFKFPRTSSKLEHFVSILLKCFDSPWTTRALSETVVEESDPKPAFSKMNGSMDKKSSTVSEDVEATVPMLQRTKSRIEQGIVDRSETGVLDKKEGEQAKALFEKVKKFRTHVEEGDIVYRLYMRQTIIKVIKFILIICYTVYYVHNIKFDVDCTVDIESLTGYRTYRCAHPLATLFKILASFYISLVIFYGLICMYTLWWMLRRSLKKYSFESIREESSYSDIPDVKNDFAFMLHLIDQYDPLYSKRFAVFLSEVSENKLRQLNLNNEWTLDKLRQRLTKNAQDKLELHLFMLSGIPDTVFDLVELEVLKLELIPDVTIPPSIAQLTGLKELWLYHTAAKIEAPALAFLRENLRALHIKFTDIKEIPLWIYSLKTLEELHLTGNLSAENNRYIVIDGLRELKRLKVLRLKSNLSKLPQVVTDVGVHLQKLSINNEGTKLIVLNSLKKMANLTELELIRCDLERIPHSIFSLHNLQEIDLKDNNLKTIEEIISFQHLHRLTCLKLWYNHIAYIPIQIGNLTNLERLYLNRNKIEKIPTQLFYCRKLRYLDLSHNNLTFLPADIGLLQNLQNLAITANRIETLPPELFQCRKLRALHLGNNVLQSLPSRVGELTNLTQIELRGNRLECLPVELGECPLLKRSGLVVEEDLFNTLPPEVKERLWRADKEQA
# Chain of UniProt P08908 (whole entry, looked up): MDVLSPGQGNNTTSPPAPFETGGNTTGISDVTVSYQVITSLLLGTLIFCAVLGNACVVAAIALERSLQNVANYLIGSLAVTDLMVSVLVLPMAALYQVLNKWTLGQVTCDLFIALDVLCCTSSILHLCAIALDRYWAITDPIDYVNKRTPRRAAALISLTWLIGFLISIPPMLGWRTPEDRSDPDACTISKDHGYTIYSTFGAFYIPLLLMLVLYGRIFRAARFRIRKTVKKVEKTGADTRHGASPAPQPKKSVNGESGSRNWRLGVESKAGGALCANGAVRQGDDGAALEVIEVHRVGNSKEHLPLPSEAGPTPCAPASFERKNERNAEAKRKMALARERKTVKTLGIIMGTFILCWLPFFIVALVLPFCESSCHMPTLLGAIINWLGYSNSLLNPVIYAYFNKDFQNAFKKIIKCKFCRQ
# Chain of UniProt O14920 (whole entry, looked up): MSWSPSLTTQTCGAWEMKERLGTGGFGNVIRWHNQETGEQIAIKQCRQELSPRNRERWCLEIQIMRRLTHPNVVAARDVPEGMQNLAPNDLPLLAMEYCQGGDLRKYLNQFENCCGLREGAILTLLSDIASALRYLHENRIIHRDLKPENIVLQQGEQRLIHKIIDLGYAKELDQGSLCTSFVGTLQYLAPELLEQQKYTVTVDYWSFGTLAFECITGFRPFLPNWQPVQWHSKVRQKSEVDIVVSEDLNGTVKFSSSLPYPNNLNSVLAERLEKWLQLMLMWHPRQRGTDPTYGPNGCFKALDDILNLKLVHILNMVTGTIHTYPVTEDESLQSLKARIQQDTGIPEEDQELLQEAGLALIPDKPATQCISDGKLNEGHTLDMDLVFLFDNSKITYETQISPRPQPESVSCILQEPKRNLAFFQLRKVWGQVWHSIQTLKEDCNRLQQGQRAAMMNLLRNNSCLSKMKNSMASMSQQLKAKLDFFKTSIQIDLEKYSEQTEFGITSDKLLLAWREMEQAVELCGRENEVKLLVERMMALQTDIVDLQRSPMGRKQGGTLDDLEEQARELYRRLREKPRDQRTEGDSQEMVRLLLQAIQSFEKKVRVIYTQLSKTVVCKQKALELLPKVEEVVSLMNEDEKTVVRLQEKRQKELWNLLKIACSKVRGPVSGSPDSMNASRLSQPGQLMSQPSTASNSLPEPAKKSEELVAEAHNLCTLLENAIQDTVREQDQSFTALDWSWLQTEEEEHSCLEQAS
# Chain of UniProt Q02750 (whole entry, looked up): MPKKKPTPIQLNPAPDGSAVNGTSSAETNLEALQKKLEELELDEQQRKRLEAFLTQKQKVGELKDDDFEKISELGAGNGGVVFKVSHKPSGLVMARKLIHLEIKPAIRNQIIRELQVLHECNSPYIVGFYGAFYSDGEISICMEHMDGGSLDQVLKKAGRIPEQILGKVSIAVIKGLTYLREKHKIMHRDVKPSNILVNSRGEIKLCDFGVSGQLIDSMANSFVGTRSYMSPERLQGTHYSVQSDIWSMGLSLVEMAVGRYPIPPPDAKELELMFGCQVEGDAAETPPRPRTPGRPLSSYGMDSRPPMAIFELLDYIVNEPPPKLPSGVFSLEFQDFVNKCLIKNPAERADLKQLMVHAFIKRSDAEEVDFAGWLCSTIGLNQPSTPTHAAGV
# Chain of UniProt Q7RTT9 (whole entry, looked up): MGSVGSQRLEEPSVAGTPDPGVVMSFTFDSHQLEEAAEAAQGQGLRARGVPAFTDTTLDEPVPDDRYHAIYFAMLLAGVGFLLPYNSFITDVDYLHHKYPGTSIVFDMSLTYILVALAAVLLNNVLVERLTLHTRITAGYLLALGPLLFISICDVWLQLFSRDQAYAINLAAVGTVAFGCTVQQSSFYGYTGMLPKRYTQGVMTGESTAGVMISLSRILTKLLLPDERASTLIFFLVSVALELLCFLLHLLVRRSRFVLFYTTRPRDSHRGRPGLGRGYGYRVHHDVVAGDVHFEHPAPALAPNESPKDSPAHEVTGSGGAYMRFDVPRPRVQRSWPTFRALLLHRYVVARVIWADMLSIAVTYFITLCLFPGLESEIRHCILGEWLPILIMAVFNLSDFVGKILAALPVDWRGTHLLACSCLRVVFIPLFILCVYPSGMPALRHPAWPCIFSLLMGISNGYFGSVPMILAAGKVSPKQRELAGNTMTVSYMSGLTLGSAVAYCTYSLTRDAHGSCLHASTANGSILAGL
SMILES,target,assay,test system,setting,inhibition
Fc1ccc(/C=C/C=N/NC(=S)Nc2cccc(F)c2)cc1,Urease subunit alpha,"enzyme activity, indophenol method",,500 µM,82.1%
Cc1oc2c(Cn3cccn3)c(O)ccc2c(=O)c1C,MAL12,inhibitor,,25 µM,< 0%
O=C(Nc1cccc2c(=O)cc(-c3nnn[nH]3)oc12)c1ccc(OCCCCc2ccccc2)cc1,"LRRC8A/LRRC8C (Homo sapiens, UniProt Q8IWT6+Q8TDW0, Y124F/Y126F)","ion current, whole-cell patch clamp",HCT LRRC8-/- cells,"0.1 µM, +100 mV, Y124F/Y126F heteromers",-7.99% and -4.11% and -8.35% and 12.6% and 6.68% and -6.08%
O=C(CN1CCO[C@H](COc2ccccc2)C1)N1CCc2ccccc21,DRD5,radioligand binding,,"concentration not given, together with: [3H]SCH23390",3.6%
COc1ccc(-c2nn(-c3ccc(S(C)(=O)=O)cc3)cc2/C=N/N=c2\[nH]c(-c3ccc(Br)cc3)cs2)cc1,"Epidermal growth factor receptor (EGFR, Homo sapiens, UniProt P00533, L858R)","kinase activity, inhibitor",,100 µM,95%
Cc1cc2c(cc1N1C(=O)c3cccc4c(CCCO)ccc(c34)C1=O)n(C)c(=O)n2C (racemic),BRDT BD2,"binding, BROMOscan binding",,1000 nM,8.8%
CC(C)c1noc2ncc(C(=O)c3ccccc3O)cc12,"Acid-sensing ion channel 3 (Asic3, Rattus norvegicus, UniProt O35240)","ion current, whole-cell patch-clamp",,"10 µM, rASIC3",3.6%
CCNNC(=O)c1ccc(CN(CC(=O)NCc2ccccc2)C(=O)c2ccc(N(C)C)cc2)cc1,"Stromelysin-1 (MMP3, Homo sapiens, UniProt P08254)",enzyme activity,,10 µM,no inhibition
c1cncc(OC[C@H]2CN(CCN3CCc4ccccc43)CCO2)c1,HTR4,radioligand binding,,concentration not given,5.6%
Fc1ccc(/C=C/C=N/NC(=S)NC2CCCCC2)cc1,Urease subunit alpha,"enzyme activity, indophenol method",,500 µM,87.4%
COc1cc(C(=O)NS(=O)(=O)c2ccccc2C)ccc1Cc1cn(C)c2ccc(NC(=O)OC3CCCC3)cc12,"Volume-regulated anion channel subunit LRRC8C, part LRRC8A IL1 chimera (LRRC8C, Homo sapiens, UniProt Q8TDW0, Y126F)","ion current, inhibitor, whole-cell patch clamp",HCT LRRC8-/- cells,"3 µM, +100 mV",69.9% and 89.6% and 84.3% and 81.2% and 91.2% and 84.2%
COc1cc(-c2cc(C(C)=O)n3ccccc23)cc(OC)c1Cn1ccnc1,BRDT BD2,,,1 µM,42.3%
Cn1cc(-c2cnc3ccc(NC(=O)Nc4ccc(F)c(Br)c4)cc3n2)cn1,"Inhibitor of nuclear factor kappa-B kinase subunit beta (IKBKB, Homo sapiens, UniProt O14920)","kinase binding, KiNativ profiling, item: Lys2 peptide",PANC-1 lysate,10 µM,9.7%
CCN(CC)C(=S)S,"Tyrosine-protein phosphatase non-receptor type 22 (PTPN22, Homo sapiens, UniProt Q9Y2R2)","enzyme activity, inhibitor",,"concentration not given, together with: DiFMUP",no inhibition
Cc1cc(-c2ccnc3[nH]cc(F)c23)cc(F)c1[C@@]1(O)[C@H](C)CN(C2CCS(=O)(=O)CC2)C[C@@H]1C,AKT1 and AKT3,"ATP probe binding, KiNativ, item: Lys1 site",HEK293T cell lysate,0.1 µM,2.8%
O=C(CN1CCO[C@H](COc2cccnc2)C1)N1CCc2ccccc21,HTR4,radioligand binding,,concentration not given,10.6%
C[C@@H]1CCO[C@H]2Cn3cc(C(=O)NCc4ccc(F)cc4F)c(=O)c(O)c3C(=O)N12,"Equilibrative nucleoside transporter 4 (SLC29A4, Homo sapiens, UniProt Q7RTT9)",transport,"MDCK-II, transfected","0.5 µM, together with: MPP+ 10 µM",-8.24%
NC(N)=S,Urease subunit alpha,"enzyme activity, inhibitor, indophenol method",,0.5 mM,94.6%
COc1cc2ncnc(Nc3ccc(Oc4ccccc4)c(C)c3C)c2cc1OC,"5'-AMP-activated protein kinase catalytic subunit alpha-1, with beta1, gamma1 (PRKAA1, Homo sapiens, UniProt Q13131)","kinase activity, inhibitor",,1 µM,-2%
CC[C@@H]1[C@H](F)C(=O)N[C@@H]1COc1nccc2cc(C(N)=O)c(OC)cc12,"Cyclin-dependent kinase 14 (CDK14, Homo sapiens, UniProt O94921)","ATP probe binding, KiNativ profiling, item: Lys2 probe site",THP-1 cell lysate,0.2 mM,-7.5%
O=C(CN1CCO[C@@H](COc2ccccn2)C1)N1CCc2ccccc21,DRD5,radioligand binding,,"concentration not given, together with: [3H]SCH23390",38.5%
COc1ccc(CN2C[C@](C)(O)[C@@H]3C[C@H]2[C@@H](C)c2nc4ccccc4c(-c4ccccc4)c23)cc1,"Mu-type opioid receptor (Cavia porcellus, UniProt A0ACM8Q262)","binding, radioligand binding",guinea pig brain membranes,"1 µM, together with: [3H]DAMGO",2%
Cc1cc(-c2ccnc3[nH]cc(F)c23)cc(F)c1[C@@]1(O)[C@H](C)CN(C(=O)CN)C[C@@H]1C,AKT1 and AKT3,"ATP probe binding, KiNativ, item: Lys2 site",HEK293T cell lysate,10 µM,18%
Cc1ccc(OC[C@H]2CN(CCN3CCc4ccccc43)CCO2)cn1,HTR1A,radioligand binding,,"concentration not given, together with: [3H]8-OH-DPAT",49%
CCc1oc2ccccc2c1C(=O)c1cc(Br)c(O)c(Br)c1,"Solute carrier family 22 member 12 (SLC22A12, Homo sapiens, UniProt Q96S37, M214A)",urate uptake,HEK293T,"0.5 µM, 10 min, 37 °C, together with: 200 µM [14C]urate",39.6% and 44.2% and 36.5% and 44.7% and 46.4% and 40.5%
COc1ccc2c(c1)C(=O)N(CCCN1CCN(c3ccccc3OC)CC1)C2,HTR4,radioligand binding,,concentration not given,6.9%
COc1ccc(F)cc1C(=O)NCc1ccc(-c2nn([C@@H](C)C(F)(F)F)c(N)c2C(N)=O)cc1,"Dual specificity mitogen-activated protein kinase kinase 1 (MAP2K1, Homo sapiens, UniProt Q02750)","target engagement, competitive chemoproteomics",human PBMCs,10 µM,35.9%
Clc1cncc(OC[C@H]2CN(CCN3CCc4ccccc43)CCO2)c1,HTR1A,radioligand binding,,"concentration not given, together with: [3H]8-OH-DPAT",13.6%
O=C(NO)c1ccc(CN2CCCCc3ccccc32)c(F)c1,DRD5,"radioligand binding, radioligand displacement",,"10 µM, mean of replicates",-0.09%
COc1ccc2c(c1)CN(CCCN1CCN(c3ccccc3OC)CC1)C2=O,HTR4,radioligand binding,,concentration not given,10.7%
COc1ccc(-c2coc3c(Cn4cccn4)c(O)ccc3c2=O)cc1OC,MAL12,inhibitor,,25 µM,27.7%
